Published values from different studies.
Every numbered part comes from another study and shows a few of its results, in no order. Changes are numbered by the printed parent chain.

Sample 1
Target: RING finger protein unkempt homolog, zinc fingers 1-6, GST-SBP tag (UNK, Homo sapiens, UniProt Q9C0B0, residues 30-357)
Chain of UniProt Q9C0B0 (30-357, looked up): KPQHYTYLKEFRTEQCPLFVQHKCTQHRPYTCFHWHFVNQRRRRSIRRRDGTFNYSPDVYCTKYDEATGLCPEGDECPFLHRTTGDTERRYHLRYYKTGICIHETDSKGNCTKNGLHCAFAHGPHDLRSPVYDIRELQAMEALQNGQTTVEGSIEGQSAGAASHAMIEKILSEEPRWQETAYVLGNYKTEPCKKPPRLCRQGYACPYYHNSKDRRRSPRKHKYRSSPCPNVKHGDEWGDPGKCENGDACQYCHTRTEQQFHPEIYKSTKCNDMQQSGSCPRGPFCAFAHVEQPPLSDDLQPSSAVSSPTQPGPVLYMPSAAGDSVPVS
Technique: RNA Bind-n-Seq
Form: RNA
Medium: in vitro
Concentration: not given
Setting: RNA with constant flanks, human and mouse sites, ends assumed
Reference: input RNA pool
Reading: higher = stronger binding
Constant ends, left off below: GGGAGUUCUACAGUCCGACGAUC … CAACAGAGGAUUGAGCAUCA
Sequence | bound/input enrichment [ratio]
GAAUACCAUCUGGCUGAUCUUGCAUCCUUAAUGGACAAAGCGUAUGAAAGAAAAUUGCCUGUUAGUUCUUUAUCAAUAUCACGGUUUGUGGACAACAUUGCAUCCCGAGAAGAUCUAGAU | 0.809
UGCCCAUCUUAGGUUGCGGUGACCGAGGUUUGUGAGGUUUUCCUUGUUUGAGAUAAAUUCUAGCAUUUGCUUUAUCAUAUACUCCUCCUGUGUGAGCGUGGAAAAGUUUAGAAUUGUAUG | 0.485
UUUUGAAAACGAACUUCUCUAGCUACACAGAAGUAACAAAAUAUGUUAGUCAGUUUUGUAUUUAGAAAUGUAUUGGUAGCAGGGAUGUUUUCAUAAUUUUCAGAGAAUAUGCAUUCUUCA | 0.561
GUGAACACAAUGGACCUUGAGAGAGAUGAACCUCUCAAAAGCACCGGCCCUCAGAUUUCUGUUAGUGAAUUUUCUUGCCACUGCUGCUACGACAUCCUGGUUAACCCCACCACCUUGAAC | 0.577
AGGCCCCAAACCCAGCCGUUUAUAUGAAAUUGUAGAAUUUUUAACUAUUGGAAACAAAUGGUUUUUUUAUAUAUACUUACUAUGCAGGCCAAAGGGGCCCCACGGACUCACCCAGGGACA | 0.624
GCGUGACUCGUAGGUGAGAACGCCGAGCCGCCGCCGCCGCCGAGAAGCCCUGUUAACGCUUUAGGGAGGAGAGUCUGGUGCCGACAAGAUGGCGGACGGGGAGCUGAACGUGGACAGCCU | 0.222
GUCAAAGAAUUGGCAAAUCAAAGAAAAUCAAGAGCCAAUGAACUGGCGGGGAACCUCGCAUCUCGAAGGGUGAGUGUCGCCUCUGAUCCUGGUCGACGAGGUCAGCACAAUACGUUGAGU | 0.203
UCUUCUGCUAAUACACAGCCCCGGGGUCCCCUUUCUCAGGCACCAACUCCAGCACCUAAGUUUGCUCCAGUGGCUCCUAAAUUUACUCCCGUGGUUUCCAAGUUCAGCCCUGGUGCUCCA | 0.279
AAGCAUGAGUAUCAAGCAAAUGGGCCAGAAGACCUCAAUCGGACCUGUAUUGCUGAAAAGCUAGGUGGCUCCUUAAUUGUAGCCUUUGAAGGAUCCCCUGUGUAGACCGCCAGUCAGUGC | 0.389
AUGGCUCACAAUCCUAAUAUGACCCAUUUGAAGAUUAAUCUGCCAGUUACUGCCCUUCCUCCCCUUUGGGUAAGAUGUGACAGUUCAGAUCCUGAAGGUACUUGUUGGCUAGGAGCUGAG | 0.181
AUUCCUUUGGAAACAGGACAAAAACAGUACAAUGUAGAUUAUAAACUGGAGACUUACUUGAAGAUUGCUAGGCUAUAUCUGGAGGAUGAUGAUCCAGUCCAGGCAGAGGCUUACAUAAAU | 0.227

Sample 2
Target: Histone acetyltransferase KAT6A, both winged helices, GST fusion (KAT6A, Homo sapiens, UniProt Q92794, residues 1-181)
Technique: protein binding microarray
Form: double-stranded DNA, one strand shown
Medium: in vitro
Concentration: not given
Setting: 8-mer, flanks averaged, mean of 2 arrays, mostly near background
Reference: not given
Reading: higher = stronger binding
Construct (chain): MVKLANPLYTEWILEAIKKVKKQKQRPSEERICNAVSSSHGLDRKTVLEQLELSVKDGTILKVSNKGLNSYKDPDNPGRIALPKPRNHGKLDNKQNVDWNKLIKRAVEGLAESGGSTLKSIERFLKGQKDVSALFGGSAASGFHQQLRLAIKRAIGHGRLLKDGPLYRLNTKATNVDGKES
Sequence | E-score
GCGTTCAA | 0.0666
ACAGTCAT | -0.0472
GGACTCAA | -0.0127
CCGACATC | 0.1
GACTTGAA | -0.168
ACTAGGCT | -0.176
GGTGGAAC | -0.105
GAATCTGC | -0.0299
GGCAGACA | 0.043
GACTACAA | -0.136
CAGAAAAC | -0.12
ACGCGGAT | 0.242
GACGATAC | 0.11
CCCCTAAG | -0.253
ATAATCTC | -0.0868
AAATGGTG | -0.105
CCGAGAGG | -0.00255
CGATGCTA | 0.0823
CATGCCCC | -0.172
CCTAGCAC | -0.0345
CCCTGCCA | -0.0993
AGTCGGCC | 0.111
TCGAAGAA | -0.0966
CACCCGTC | 0.218
CGATACTC | 0.0945

Sample 3
Target: CCNF, cyclin fold, Cln2 fusion (human)
Technique: yeast growth competition, sequencing
Medium: yeast
Setting: strong parent motif
Reference: not given
Reading: higher = stronger binding
Starting sequence: CDKN1B docking peptide (human); PSACRNLFGPVDH
Variant | normalised enrichment score
R5C | 0.204
R5K | 3.79
P1L | 7.65
V11E | 6.6
H13K | 7.32
A3Y | 5.79
S2D | 6.45
D12G | 7.37
A3L | 7.5
N6I | 5.08
A3R | 1.19
G9E | 4.4
S2K | 7.44
H13G | 6.91
S2F | 5.2
P10F | 7.92
F8K | 0.719
V11A | 7.08

Sample 4
Target: DDIT3, bZIP domain (human)
Technique: DHFR protein complementation
Medium: yeast
Setting: single substitutions, most at no-binding floor
Reference: wild-type JUN-FOS pair
Reading: higher = stronger binding
Starting sequence: JUN, bZIP domain (human); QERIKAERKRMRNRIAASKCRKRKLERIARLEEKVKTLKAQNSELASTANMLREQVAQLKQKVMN; partner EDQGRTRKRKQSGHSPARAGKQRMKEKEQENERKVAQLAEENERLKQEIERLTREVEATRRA
Variant | binding fitness [natural log]
A57L | -0.11
E32Q | -0.222
T37G | -0.0818
V56S | -0.519
L59C | -0.148
E32M | -0.291
E33Q | -0.0497
M51P | -1.35
A40N | -0.0516
L45E | -1.4
I28T | -0.17
A46I | 0.0516
N42G | -0.859
A49E | -0.53
E54T | -0.0709
A57D | 0.0228
A29Y | -0.133
A49R | 0.0718
R30D | 0.0555
L59S | -0.0975

Sample 5
Target: Sal-like protein 4, full length isoform B (SALL4, Homo sapiens, UniProt Q9UJQ4-2, residues 1-616)
Technique: universal PBM
Form: double-stranded DNA, one strand shown
Medium: in vitro
Concentration: not given
Setting: 8-mer, flanks averaged, mean of replicates
Reading: higher = stronger binding
Sequence | E-score
ATAGTAGC | 0.105
ATCTGGGC | -0.253
ATCCTAAT | 0.173
ACTCGTCA | -0.0366
GGGTGTCA | -0.19
AGACTGGA | -0.0823
ACGCCAGA | -0.154
GATTCCGC | -0.131
CCTGTATA | 0.145
CGTTCCGC | -0.246
ATAGCGCC | -0.092
CGTCAGCA | -0.0763
GCCGCTAA | -0.179
GTCTTGCA | 0.104
CTGTAAAA | 0.117
CTCTCATA | 0.204
ATAAGGAA | 0.13
GGGGGATA | 0.0495
GCTCAAGA | -0.183
GCCGAATA | -0.0205
ACCACTGA | -0.0939
ACCCTCCA | -0.174

Some of these lines once more (sample 5):
Sequence | E-score
CCTGTATA | 0.145
ATCCTAAT | 0.173
CGTTCCGC | -0.246
ACTCGTCA | -0.0366
CGTCAGCA | -0.0763
GGGTGTCA | -0.19
ATAAGGAA | 0.13
ACCACTGA | -0.0939
GCCGCTAA | -0.179
GATTCCGC | -0.131
ACGCCAGA | -0.154
GCTCAAGA | -0.183
GTCTTGCA | 0.104
ATAGCGCC | -0.092
ACCCTCCA | -0.174
